Measurements from different studies.
A part holds a random share of what one study measured.

Sample 1
Target: RNA binding protein fox-1 homolog 2, RRM domain, GST-SBP tag (RBFOX2, Homo sapiens, UniProt O43251-10, residues 100-194)
Technique: RNA Bind-n-Seq
Form: RNA
Matrix: in vitro
Tested at: 365 nM
Setting: natural RNA segment, single round, ends assumed
Reference: no-protein control
Direction: higher = stronger binding
Quantity: RBNS enrichment (R)
Constant ends, left off below: GGGAGUUCUACAGUCCGACGAUC … UGGAAUUCUCGGGUGCCAA
Construct (chain): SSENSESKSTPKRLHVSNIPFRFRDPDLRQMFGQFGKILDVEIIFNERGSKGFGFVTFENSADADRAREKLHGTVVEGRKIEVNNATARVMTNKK
UGUUUUCACUUUUCCUUGUUCGGGAAUGAUAAGGGCAAUGCUUUUUGAGGUUUAACUAACAAGGAUUUACUUCCAGUAACCUGACAUAUCUCAUCUUGUCAGAGCCCUAU: 0.225
CCUGGACUUUGCCUGGUGCCUUCUAGGCGUCUUUCAGAGAUGGCCCAGGAGGCUUGGAGCUUGGACAGUGUGUGGUCUUCUCCCUAUCUUGCCUCCUGAUUUUUUUUUUC: 0.24
UGUCCAUUUUACUGUUUUGGAUCUAAUAAACCAAUUGGUUUUUUUUUUUUUUUUGUACCUUUCUGGGAUUUUAAUUCUUGCUAGUUACCGAUGUAUGAUGUGAAAAGGAA: 1.09
GUAUAUAAAAGUAAAGAUGUAAUUAUAGGAUAUAGUGUUCCUGCUUUGUUUAAUAAGAACCUCAUUUAAACUUGACAGCUAUGGUAUUUUUUUAAUGAUAACUUCUUUUC: 0.41
UGCUUUUUAAUUAUUAUUAUUAUUUUUUUUACAUUAGGACAUUUUAUGUGACAACUGCCAAAAAAGUAUUUUUAAGAAUUUAAGCGAAAUAAACAGUUACUCUUUGGUAA: 0.523
CACCUGCCUGGGGCCUCGCAGCGGGGCCAGGGCUCCGCCUGCUGAUCGGGGGUUGUGAGCAGCGCGGCCUGGACGCGGGGCACUCUCAGGGGGCUGUGUCUGCGUGUCAG: 0.729
UGAAUAAUUAUUUUUUAAAAAACUUUGUUGUCUCUGUUCUGAGUCUGAAUUCCUUGCAGAUGGUAGCAUUGUCUACCAGUUGGUUCAGUCUCCAUAGGACUUUCAUAUCA: 0.367
UACAUACUUAAAAGUUUACCAAAUGUUAACCAGAUUUUUGAAACCUCCCCCCCCCCCUAUUUAUUUAUUUUUUAUGUUGGAAAUACCCGAAUGAUGUUUGGUAAUUGUAG: 2.37
UCAAGUGUCCCCACAGUCCUAAGCGGACAUGUUUGUUAUGUUGUAAAUUUUAUUUGGUUUGUACUCAAUUCAAUUUCAAAAUUGCUAAAAUGUGUUUGAGCUUUAGACUA: 0.412
UUUUUAGUAGAGUCAGGGUUUCACCAUGUUGGCCAGGCUGGUCUUGAAUUCCUGACCUCAAAUGAUCCACGCACCUCAGCCUCCCAAAGUGCUGGAUUACAGGCAUGAGC: 1.35
GAUCAGCUGGCUGGGAGGAUUAGUGAGCACCUCUGUAUUUUGAGGUCUGAGUCUUCUGGAGCUGUGUAGUUAAUCUUCGGUUUCUGAUAACCCCUGGGUCCAUCUGGCCA: 0.465
ACUUUACUUUGAAGCAAACGUCUUUUUUUUAAAGAUUGCUUCACCAAUGAUGCUGUCAGAUAUAUCUGCUUUCUCAAGUUUAAAAGAAUUCAAAUUAACUUCCUUUGAGU: 0.373

Sample 2
Target: Ras GTPase-activating protein-binding protein 1, C-terminal RGG region (G3BP1, Homo sapiens, UniProt Q13283)
Sequence of UniProt Q13283 (whole entry, looked up): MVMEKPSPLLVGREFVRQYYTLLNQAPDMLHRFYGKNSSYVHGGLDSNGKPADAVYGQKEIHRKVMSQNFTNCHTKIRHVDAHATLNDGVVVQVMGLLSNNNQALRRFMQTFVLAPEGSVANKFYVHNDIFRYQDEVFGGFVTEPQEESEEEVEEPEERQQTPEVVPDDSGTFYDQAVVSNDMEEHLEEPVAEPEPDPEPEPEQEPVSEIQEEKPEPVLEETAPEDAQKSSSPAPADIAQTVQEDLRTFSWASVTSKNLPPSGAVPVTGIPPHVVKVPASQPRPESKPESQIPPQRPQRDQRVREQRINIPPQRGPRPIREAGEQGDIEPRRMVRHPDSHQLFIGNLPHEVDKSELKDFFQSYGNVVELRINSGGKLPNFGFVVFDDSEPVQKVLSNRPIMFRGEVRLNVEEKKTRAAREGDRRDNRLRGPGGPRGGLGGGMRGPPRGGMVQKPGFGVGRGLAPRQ
Technique: RNA Bind-n-Seq
Form: RNA
Matrix: in vitro
Tested at: 1 µM
Setting: whole 134-nt RNA, ends assumed
Together with: 150 mM KCl
Reference: input library
Direction: higher = stronger binding
Quantity: log2 enrichment
Constant ends, left off below: GGGAGUUCUACAGUCCGACGAUC … UGGAAUUCUCGGGUGUCAAGG
UGUGCUACACAUCGUAUGUACCGAAUCGGGGAAAAAAAGGGGAAAAAAAGGGGUUUUUGGGGAAAGUAUUAUGUUACGCCGUUCGGAUCU: 0.816
AAGUCCUGUGCUACACAUCGUAUGUACCGAAUCGGGUUUGGGGUUUGGGGUUUGGGAAAGUAUUAUGUUACGCCGUUCGGAUCUGCACUU: 1.77
UCUGGACAUGCAGGUGGACCAGUCAGUGCCAGAGUAAGUUGUUGUUUUCUUAAAAGAAAAAAAAAAAUGUAAAAUCAUCUAACCCUAACC: -0.73
CACAGACAACACGCACCCACACAGACACAGACGGAAGGGGUUGGGAUGGGGACAGGGUGCACAGCAGGGCGGGGUAGGACCCCAGCCCCU: -0.163
UGGGAGGUGGAUAUUGUUUAUUUUUUUAGCUCAUUUCCAGGGGUGGGAAUUUUUUUUUAAUAUGUGUCAUGAAUAAAGUUGUUUUUGAAA: 3.83
UAACUUUAGAGGAGGAUCUGAUGGAUAUGGCAGUGGACGUGGAUUUGGGGAUGCCUAUAAUGGGUAUGGAGGAGGACCUGGAGGUGGCAA: -0.263
CCUCAAGUCCUGUGCUACACAUCGUAUGUACCGAAUCGGGGUGGGUGGGUGGGAAAGUAUUAUGUUACGCCGUUCGGAUCUGCACUUCCA: 1.22
CUGUGCUACACAUCGUAUGUACCGAAUCGGGGUUUUUGGGGAAAAAGGGGUUUUUUUGGGGAAAGUAUUAUGUUACGCCGUUCGGAUCUG: 0.858
ACCAUGCUGGUGGGCAUCUUUGGGAAGUGGGGCAAGGGGGGGAUAGGGAGGGGGGUAACACUUUGGGAACAGGUGGUCCCAGGUCGUUUC: -1.61
UAACUUUAGAGGAGGAUCUGAUGGAUAUGGCAGUGGACGUCGAUUUGGGGAUGGCUAUAAUGGGUAUGGAGGAGGACCUGGAGGUGGCAA: -1.1

Sample 3
Target: RING finger protein unkempt homolog, zinc fingers 1-6, GST-SBP tag (UNK, Homo sapiens, UniProt Q9C0B0, residues 30-357)
Technique: RNA Bind-n-Seq
Form: RNA
Matrix: in vitro
Tested at: not given
Setting: RNA with constant flanks, human and mouse sites, ends assumed
Reference: input RNA pool
Direction: higher = stronger binding
Quantity: bound/input enrichment
Constant ends, left off below: GGGAGUUCUACAGUCCGACGAUC … CAACAGAGGAUUGAGCAUCA
Construct (chain): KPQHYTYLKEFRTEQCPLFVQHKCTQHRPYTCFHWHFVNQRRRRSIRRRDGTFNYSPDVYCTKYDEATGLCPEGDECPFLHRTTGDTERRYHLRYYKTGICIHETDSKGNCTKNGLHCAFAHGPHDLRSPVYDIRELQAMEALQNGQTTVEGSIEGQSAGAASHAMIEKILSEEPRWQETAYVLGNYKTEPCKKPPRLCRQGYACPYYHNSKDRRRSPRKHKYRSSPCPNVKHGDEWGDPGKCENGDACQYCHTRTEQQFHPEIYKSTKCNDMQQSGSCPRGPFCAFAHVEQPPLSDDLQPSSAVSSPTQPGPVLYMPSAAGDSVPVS
UUAAUGUUCUUAAUAAAGUGUUCUUGGAGUUGAACCUAGCAGCGGAUGGCUUUCUUUAGCUUAGCCCAGUUUCCAGGGAAGCGUUGUUUCUCCAGGCUGUAAAAUGGCAGACUCUCCUGG: 0.4 ratio
GCCAUUCAGGAACGAGUGGCUCAUGGCCAAACUGGAAACUUCUUGUUCUUUGGCUGCCGCCAGCGGGAUCAGGACUUCUACUGGCAGACUGAAUGGCAGAAGCUAGAGCAGAAGGGCUGG: 0.0911 ratio
AAAAAAAAGCCUAUUAAUAGGGUUUCUGCGCGGUGCAGGGUUGUAAACCUGCUUUAUCUUUUAGGAUUAUUCCUAAAUGCAUCUUCUUUAUAAACUUGACUUGCUAUCUCAGCAAGAUAA: 0.149 ratio
UGGCAUAAACUCUCUGCUGACAACAUGGACCCAGACUUUGUGGAGAGACGACGCGUGGGCUUAGAAAACUUCCUCUUGAGGGUUGCUUCACAUCCUGUCCUUUGUAGAGACAAAAUCUUC: 0.225 ratio
AUGGACCUGCAGCUCCACAUUUACCAGCUGAAAACCCUGAUCAGGAUGGUAAAGAAAACCUAUAGAGAUUUCCGAUUGCAAGGGGUCCUGGAUUCCACCUUAAACAGCAAGACCUAUGAG: 1.31 ratio
CAUGUAGGAGCAAAGGCUGUCAUGUCUGUUGUGAGGGACCUGCUGACUAGGCUCUCUGGAACUAGGGCCGCCUGGCCCCUGGCAUUCUGAGGGGUGUGUGCUGCAGAGAGCAUUCAUUGU: 0.255 ratio
GUGCCUGAGGUGAAAAAAGUUUGUAAGUUAUUGAAUUAUGGUGUUCAUUAGAACAGCUACUAGCUGAUUCCCCUAUUUUAACAAACUGACAAGAGCACAUCCAUAAAAUGAAAACCUGUU: 0.372 ratio
CGGAAAGCCACCAAGUGGGCACAGUCAGGCCUCAUCGUCAGCAUUGGGCCACCUGUAGAGUCUAUCAACCCAGAGACUGUGAGUGGACUAUCCACAGGCGACAAAAAGAAAACUGCCCAA: 0.137 ratio
UGCCAAGUCCAUCUUUGCCCAGUCAAUUCAGUGAUUGAUAGCAAUUUACAUUAAUUGCAGUAAAGCUCUUUGGAUUAGAAAUUAGUGUGGGGAAAGCUUAUUCUGUUGUUGUUUUUGUUU: 1.37 ratio
AUUAGAAAUGAUACCUUCAGUGACUCACCAGUUUGGCCAUGGAUCCCAUCAUUGUCUGAUGUAGCAGCUGUGUUUUUCAAUAUGGGGAUUGAUUUUAGAUCUUUGUUUCCCCUGGAGAAU: 0.318 ratio
AGGCUCGAGGGCGGUGAGCAGUGACAAUUGCUAGGCGGAGACAGUGCAGGGAAGAGAGACCUUAGAAAGGAUCAGGACUGGCGGGAGGUAUUUAACUGAAAGGAAUAUCUGCUUCACUGU: 0.318 ratio

Sample 4
Target: Histone acetyltransferase KAT6A, winged helix 2, GST fusion (KAT6A, Homo sapiens, UniProt Q92794, residues 85-181)
Technique: protein binding microarray
Form: double-stranded DNA, one strand shown
Matrix: in vitro
Tested at: not given
Setting: 8-mer, flanks averaged, mean of 2 arrays, mostly near background
Reference: not given
Direction: higher = stronger binding
Quantity: E-score
Target sequence (chain): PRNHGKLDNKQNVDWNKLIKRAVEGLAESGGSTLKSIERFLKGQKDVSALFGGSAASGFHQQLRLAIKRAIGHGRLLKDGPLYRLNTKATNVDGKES
GAGCGAGC: 0.208
GGGTTGTA: -0.112
AGATAGTG: -0.0753
CCAAAACG: 0.0625
GAGGAGGA: 0.0279
ACTAAATC: 0.0395
CACTGTTC: -0.0288
CACTGCTC: 0.0316
AACCACGG: -0.147
CCTACTTC: 0.0687
GAAGCTAC: 0.139
ACATGCTC: -0.0131
GGCAACCA: 0.0216
GAGCTGTA: -0.2
AGTCCTTA: -0.0573
GGAAGTAA: -0.0685
CGGTCCAG: 0.00507
ATGTGGCC: -0.0612
TCAGGAAA: 0.0311
CAGTGGAA: 0.0292
ACAGCGTG: 0.17
AGGCCCAC: -0.0293
GTGTCTGA: 0.063
ATGTTAGA: -0.152

Some of these lines once more (sample 4):
GTGTCTGA: 0.063
AACCACGG: -0.147
ATGTGGCC: -0.0612
TCAGGAAA: 0.0311
